Measurements collected from several papers.
Numbered parts are unrelated; each lists some results of a single study. Changes are numbered by the printed parent chain.

Study 1
Target: RNA binding protein fox-1 homolog 2, RRM domain, GST-SBP tag (RBFOX2, Homo sapiens, UniProt O43251-10, residues 100-194)
Technique: RNA Bind-n-Seq
Molecule type: RNA
Sample: in vitro
Concentration: 365 nM
Setting: natural RNA segment, single round, ends assumed
Baseline: no-protein control
Reading: higher = stronger binding
Constant ends, left off below: GGGAGUUCUACAGUCCGACGAUC … UGGAAUUCUCGGGUGCCAA
Residues (chain): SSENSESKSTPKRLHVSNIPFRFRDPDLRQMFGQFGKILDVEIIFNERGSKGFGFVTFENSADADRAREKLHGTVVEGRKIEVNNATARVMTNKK
Oligonucleotide	RBNS enrichment (R)
CCUGCCCAUGCUGGGAGCCCACGCUCACCCCCUCACCCCUCCAAGCUCACUCCCCAACCCCCAACUCCGUGUGGUAAGCAACAUGGCUUUGAUGAUAAACGACUUUACUC	0.484
UACAGUUUUUGUCACAAGACAGAAACUUUUGUCUCAUCCUCUCUGGCAAGUAGCAGCCUGAGGAAGAUGCUGGCUUGUCUGUACCGUCACGUCUGCAGCAGAGGCCCAGU	0.254
UCUCUUUCUCCCCUUGUUUACCCUCCAUUCCCACUCUGAUUUAGACUUCUUGAUUGUCGAUCUCUGUCACAUCCGAUGAUUGUUUUGGUUUCUAUUCCCUUUCUAACUGC	0.873
AAGGGUGAGAGGGGCCCUGAAAGUUCAUAUGGUGGGUAUGUCCCGCAGCAGAGUGAGGAGAUGAAGCUUACGUGUCCUGACGUUUUGUUGCUUAUACUGUGAUAUCUCAU	0.923
CCAUGAUUGCGCCACUGCACUCAGCCCGGGUGACAAAGCAAGACCCUGUCUCAGAAAAAAAGAAAAUUCAAGGCCAGUUAAGACAAAAUGCUAUGACUUUGAAAUUCACA	0.462
CAUUUAUGUCGUGUGUGAGUGAGUGAUACGCAGAGUUCUUUACUGCUGUCUGUGGUGUGUGUGCCUUGUCUAGACAUGUGGCUUCCUCUGCUGUUGACCAGGUAGGCGCA	1.4
GGAGCAGCCAGCCAUUUGGGAGAAGAUCUCAAGGAUCCAGACUCUCAUUCCUUUCCUCUGGCCCAGUGAAUUUGGUCUCUCCCAGCUCUGGGGGACUCCUUCCUUGAACC	0.272
CUAAGUGCCUUUACUUAGGAAAAGCCAGUACCACAUCAUGGCUUCCUUCUUCACUCAAAGGCUGCUUUGCUCUGAGUGGGGAAAGAGUGGGUGUUUUGUAGAAGCAUUGC	0.278
UCUUCCUGUUUAUGAUUAACUCUGGAUACCUGGGCAGGUGGGGCAGAGUGGGCAGGGAAGUGGCUUCAGCCCCUGAGACCCAGAAUAAUAACUAAUCAGCUAGUGUUGUG	1.6
AAAUAUCAGGGAUUUUUGUUGAAUAUUUCAAAUUCAGCUUUAAGUGUAAGACUCAGCAGUGUUCAUGGUUAAGGUAAGGAACAUGCCUUUUCCAGAGCUGCUGCAAGAGG	0.392
CAUAUGAAGAAAUGGAGACAUUAACUUCGUUCUAAAGCCUGAUUGUAGAUUGCUCCUUAAAACUGAACAGUUAGUGUUUGAAGUUGAAAUGCUGAAUAUAAUGUGAAUAG	1.18
CACUAUUUUAAAUAAAUUAUAAGCUUUAAGGUACGAAGUAUUUAAUAGAUCUAAUCAAAUAUGUUGAUUCAUGGCUAUAAUAAAGCAGGAGCAAUUAUAAAAUCUUCAAU	0.619

Study 2
Target: CCND1, cyclin fold, Cln2 fusion (human)
Technique: yeast growth competition, sequencing
Sample: yeast
Setting: weak parent motif
Baseline: not given
Reading: higher = stronger binding
Starting sequence: E2F3 docking peptide (human); PPAKRRLELGESG; partner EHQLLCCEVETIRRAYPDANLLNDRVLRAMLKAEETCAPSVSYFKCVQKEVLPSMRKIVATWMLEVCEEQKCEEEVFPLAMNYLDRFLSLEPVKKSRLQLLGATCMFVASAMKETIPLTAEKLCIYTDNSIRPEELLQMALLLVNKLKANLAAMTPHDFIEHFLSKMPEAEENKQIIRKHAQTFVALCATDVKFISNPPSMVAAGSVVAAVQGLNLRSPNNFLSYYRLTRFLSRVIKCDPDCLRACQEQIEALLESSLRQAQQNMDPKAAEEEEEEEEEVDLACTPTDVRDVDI
Change	normalised enrichment score
R5A L7A	0.178
R6A	0.0991
R5K L9F	0.573
E11A	0.492
P2A	-0.0242
R5A	0.247
G13A	-0.314
R5K	-0.554
L9A	0.659

Study 3
Target: CEP164, C-terminal peptide (human)
Technique: DHFR complementation, deep sequencing
Sample: yeast
Setting: single substitutions, model-inferred values
Baseline: wild type
Reading: higher = weaker binding
Starting sequence: PDZK1, PDZ domain 2 (human); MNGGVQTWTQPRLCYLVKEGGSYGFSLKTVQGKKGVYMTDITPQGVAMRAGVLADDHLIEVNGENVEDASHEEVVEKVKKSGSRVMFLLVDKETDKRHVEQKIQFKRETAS; partner HNRVKVYRF
Change	binding free energy change [kcal/mol]
S70K	0.196
S81M	1.04
R84Y	0.263
C14W	1
H98S	-0.0262
T39Y	0.388
E76V	0.383
D95P	-0.0581
K77P	-0.0558
Q101M	-0.0734
G24A	1.33
Q104I	-0.138
F87M	0.272
E72R	0.73

Study 4
Target: Interferon regulatory factor 7, full length, phosphomimetic (IRF7, Homo sapiens, UniProt Q92985, residues 1-503, S471D/S472D/S475D/S476D/S477D/S483D/S484D/S487D)
Technique: protein-binding microarray
Molecule type: double-stranded DNA, one strand shown
Sample: in vitro
Concentration: 2200 nM top
Setting: 60-bp whole probe
Added: salmon DNA 0.4 mg/ml
Baseline: random background probes
Reading: higher = stronger binding
Constant ends, left off below: GCCTAGCAC … GTCTTGATTCGCTTGACGCTGCTG
Residues (chain): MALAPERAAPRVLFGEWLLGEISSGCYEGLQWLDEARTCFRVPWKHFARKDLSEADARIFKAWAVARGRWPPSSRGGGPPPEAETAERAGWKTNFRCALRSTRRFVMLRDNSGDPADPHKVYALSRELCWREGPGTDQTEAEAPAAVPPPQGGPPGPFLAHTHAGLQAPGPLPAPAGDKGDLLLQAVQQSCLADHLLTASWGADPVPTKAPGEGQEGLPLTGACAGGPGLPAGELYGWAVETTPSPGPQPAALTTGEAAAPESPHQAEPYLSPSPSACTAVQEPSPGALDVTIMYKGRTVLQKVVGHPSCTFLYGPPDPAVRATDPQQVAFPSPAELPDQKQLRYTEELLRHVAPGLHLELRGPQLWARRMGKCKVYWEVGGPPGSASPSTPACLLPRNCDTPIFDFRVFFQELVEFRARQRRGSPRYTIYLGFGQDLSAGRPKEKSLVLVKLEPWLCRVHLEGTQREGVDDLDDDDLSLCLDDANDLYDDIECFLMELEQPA
Oligonucleotide	fitted relative affinity
TCAGTCCTCACTTCCTTACTGTGCTAG	2.57 z-score
TCACAAGTTTCACGTCTTACTGTGCTA	1.84 z-score
CACGGACTGCTTCTCCTGACGTGCTAG	0.354 z-score
TTAGGTTTCGGTTCCGGTGAGTGCTAG	11.2 z-score
TTAGGTAACGGACTGGGTTAGTGCTAG	-0.325 z-score
TCACCTTTGCCTCCAGGACTGTGCTAG	1.49 z-score
TCAATCATTGCTTTCTCACTGTGCTAG	1.45 z-score
GACGGTATCGGGGCTGGGGACGTGCTA	-0.0651 z-score
GACGGTATCTGGACTGGGGACGTGCTA	-0.333 z-score
GACGGTATCCTTATCCTGAAGTGCTAG	0.715 z-score
ATAGGTATCCTTCTCCTTTAGTGCTAG	1.33 z-score
TTAGGTTTCGTACTGCTTTAGTGCTAG	3.67 z-score
GACGCTATCGGGTATCGAGACGTGCTA	0.122 z-score
GTCACATTGCACAATCTTAATGTGCTA	1.11 z-score
TACGGTTTCGGTTTCGGGACGTGCTAG	14.8 z-score
GACCGTATCGGTATCGGGACGTGCTAG	0.509 z-score
GACGGTCTCCTTCTGCTGACGTGCTAG	0.683 z-score
TTAGGTCTCGGTTTGGGTTAGTGCTAG	2.39 z-score
GACGAACTGAGTTTTGAGACGTGCTAG	0.25 z-score
GTAGATTTCGGGTATCGATTAGTGCTA	2.83 z-score
GACGGTATCGGACTGGGGTCGTGCTAG	-0.278 z-score
GACCGTCTCGGTTTCGGGACGTGCTAG	3.52 z-score
TTAGAACTGGGTTATCGATTAGTGCTA	-0.153 z-score

Study 5
Target: BATF3, bZIP domain (human)
Technique: DHFR protein complementation
Sample: yeast
Setting: single substitutions, most at no-binding floor
Baseline: wild-type JUN-FOS pair
Reading: higher = stronger binding
Starting sequence: JUN, bZIP domain (human); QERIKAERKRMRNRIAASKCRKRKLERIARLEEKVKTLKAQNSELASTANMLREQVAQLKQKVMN; partner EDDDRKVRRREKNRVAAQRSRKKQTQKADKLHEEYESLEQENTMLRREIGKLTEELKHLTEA
Change	binding fitness [natural log]
M51K	0.22
E54C	0.0528
A49F	0.0592
Q58R	0.0621
E33R	0.171
A29R	0.13
E44M	0.224
K36T	0.153
L45W	-0.017
L52C	-0.301
N42H	0.128
T48W	0.0772
T37M	0.416
E32H	0.147
V56W	-0.049
S43W	0.148
E33V	0.0871

Study 6
Target: ABI1, truncated, D143A, DHFR fusion (Arabidopsis thaliana)
Technique: DHFR PCA, deep sequencing
Sample: yeast
Setting: methotrexate growth selection, single substitutions
Added: (+)-ABA 58 µM
Baseline: wild-type fitted maximum
Reading: higher = stronger binding
Starting sequence: PYL1, truncated, DHFR fusion (Arabidopsis thaliana); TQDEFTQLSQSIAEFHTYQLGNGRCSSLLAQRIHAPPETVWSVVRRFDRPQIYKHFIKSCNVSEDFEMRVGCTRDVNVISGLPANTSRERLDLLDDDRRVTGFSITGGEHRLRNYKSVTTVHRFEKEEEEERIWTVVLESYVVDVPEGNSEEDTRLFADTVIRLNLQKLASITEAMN; partner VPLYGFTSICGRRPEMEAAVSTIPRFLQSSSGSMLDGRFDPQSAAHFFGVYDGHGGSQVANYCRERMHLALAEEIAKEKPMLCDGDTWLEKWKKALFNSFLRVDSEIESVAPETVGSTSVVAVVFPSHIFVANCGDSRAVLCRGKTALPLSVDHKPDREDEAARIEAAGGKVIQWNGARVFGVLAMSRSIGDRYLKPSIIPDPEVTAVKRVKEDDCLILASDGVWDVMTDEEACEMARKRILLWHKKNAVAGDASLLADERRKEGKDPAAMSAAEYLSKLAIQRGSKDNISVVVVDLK
Change	relative binding score
D96C	26%
T86P	-4.51%
D159E	76.6%
N114S	57.4%
V161A	13.6%
S171H	84.9%
S80D	8.46%
G108S	10.1%
I162Y	9.91%
R111V	9.38%
F66K	76%
A13E	89.9%
R163S	70.6%
S87L	0.196%
L91Q	12%

For quick reference, copied from above (study 4):
Oligonucleotide	fitted relative affinity
TTAGGTTTCGTACTGCTTTAGTGCTAG	3.67 z-score
TTAGGTAACGGACTGGGTTAGTGCTAG	-0.325 z-score
TCAATCATTGCTTTCTCACTGTGCTAG	1.45 z-score
GACGGTATCCTTATCCTGAAGTGCTAG	0.715 z-score
ATAGGTATCCTTCTCCTTTAGTGCTAG	1.33 z-score
TACGGTTTCGGTTTCGGGACGTGCTAG	14.8 z-score
GACGAACTGAGTTTTGAGACGTGCTAG	0.25 z-score
GACGGTATCTGGACTGGGGACGTGCTA	-0.333 z-score
CACGGACTGCTTCTCCTGACGTGCTAG	0.354 z-score
GACGCTATCGGGTATCGAGACGTGCTA	0.122 z-score
